Published values collected from several papers.
Each numbered part is a random draw from the data of one study; scales do not carry over between parts. Changes are numbered by the printed parent chain.
Chain of UniProt Q9FKM7 (whole entry, looked up): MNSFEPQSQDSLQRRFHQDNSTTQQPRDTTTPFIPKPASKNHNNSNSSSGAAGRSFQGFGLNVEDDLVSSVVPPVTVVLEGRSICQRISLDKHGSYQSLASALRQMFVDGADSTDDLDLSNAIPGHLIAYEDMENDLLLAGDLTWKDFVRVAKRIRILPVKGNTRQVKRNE
Chain of UniProt Q9C966 (whole entry, looked up): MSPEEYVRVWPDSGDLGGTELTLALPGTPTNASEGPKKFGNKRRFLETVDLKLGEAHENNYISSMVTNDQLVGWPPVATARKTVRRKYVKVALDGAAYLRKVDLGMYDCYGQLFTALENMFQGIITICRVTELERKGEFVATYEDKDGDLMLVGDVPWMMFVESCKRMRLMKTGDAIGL
Chain of UniProt Q8LAL2 (whole entry, looked up): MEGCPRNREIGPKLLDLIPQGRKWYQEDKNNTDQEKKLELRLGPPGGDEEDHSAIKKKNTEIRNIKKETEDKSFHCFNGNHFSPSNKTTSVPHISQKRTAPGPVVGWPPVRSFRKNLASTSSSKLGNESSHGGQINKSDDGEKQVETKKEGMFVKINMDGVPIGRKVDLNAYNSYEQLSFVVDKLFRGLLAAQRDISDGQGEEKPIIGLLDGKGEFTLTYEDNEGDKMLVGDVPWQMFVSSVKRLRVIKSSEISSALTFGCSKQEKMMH
Chain of UniProt Q84WU6 (whole entry, looked up): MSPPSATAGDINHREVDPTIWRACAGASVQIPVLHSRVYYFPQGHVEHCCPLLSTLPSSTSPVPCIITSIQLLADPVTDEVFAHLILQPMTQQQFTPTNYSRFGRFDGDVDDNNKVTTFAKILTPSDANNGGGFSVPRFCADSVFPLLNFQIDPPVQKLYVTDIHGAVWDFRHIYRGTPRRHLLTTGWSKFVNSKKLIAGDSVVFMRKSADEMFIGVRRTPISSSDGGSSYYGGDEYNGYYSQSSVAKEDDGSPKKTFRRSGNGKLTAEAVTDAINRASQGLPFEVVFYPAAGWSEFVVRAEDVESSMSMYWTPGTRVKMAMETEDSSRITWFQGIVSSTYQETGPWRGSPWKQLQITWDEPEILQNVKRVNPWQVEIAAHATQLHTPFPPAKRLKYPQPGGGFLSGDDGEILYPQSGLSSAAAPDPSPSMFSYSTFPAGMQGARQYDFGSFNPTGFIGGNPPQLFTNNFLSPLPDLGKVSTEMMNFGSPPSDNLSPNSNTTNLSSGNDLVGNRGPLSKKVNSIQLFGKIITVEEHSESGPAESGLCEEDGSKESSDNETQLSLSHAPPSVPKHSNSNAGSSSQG
Chain of UniProt Q9FX25 (whole entry, looked up): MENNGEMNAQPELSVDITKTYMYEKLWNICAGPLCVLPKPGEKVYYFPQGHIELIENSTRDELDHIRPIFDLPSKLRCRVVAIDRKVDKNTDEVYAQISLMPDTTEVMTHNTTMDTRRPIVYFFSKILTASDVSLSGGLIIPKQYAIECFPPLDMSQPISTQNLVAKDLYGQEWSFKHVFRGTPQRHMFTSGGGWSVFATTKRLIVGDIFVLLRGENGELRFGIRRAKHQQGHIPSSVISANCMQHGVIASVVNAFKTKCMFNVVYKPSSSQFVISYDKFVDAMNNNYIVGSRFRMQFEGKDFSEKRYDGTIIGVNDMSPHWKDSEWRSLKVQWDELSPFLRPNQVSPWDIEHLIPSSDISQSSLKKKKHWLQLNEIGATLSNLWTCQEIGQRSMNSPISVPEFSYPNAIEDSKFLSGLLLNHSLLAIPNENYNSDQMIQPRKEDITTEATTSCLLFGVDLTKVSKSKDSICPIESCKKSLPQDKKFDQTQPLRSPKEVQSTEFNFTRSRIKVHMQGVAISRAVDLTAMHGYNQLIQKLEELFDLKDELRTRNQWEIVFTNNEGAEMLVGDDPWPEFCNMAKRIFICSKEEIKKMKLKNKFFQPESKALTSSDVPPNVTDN
Chain of UniProt Q9SKN5 (whole entry, looked up): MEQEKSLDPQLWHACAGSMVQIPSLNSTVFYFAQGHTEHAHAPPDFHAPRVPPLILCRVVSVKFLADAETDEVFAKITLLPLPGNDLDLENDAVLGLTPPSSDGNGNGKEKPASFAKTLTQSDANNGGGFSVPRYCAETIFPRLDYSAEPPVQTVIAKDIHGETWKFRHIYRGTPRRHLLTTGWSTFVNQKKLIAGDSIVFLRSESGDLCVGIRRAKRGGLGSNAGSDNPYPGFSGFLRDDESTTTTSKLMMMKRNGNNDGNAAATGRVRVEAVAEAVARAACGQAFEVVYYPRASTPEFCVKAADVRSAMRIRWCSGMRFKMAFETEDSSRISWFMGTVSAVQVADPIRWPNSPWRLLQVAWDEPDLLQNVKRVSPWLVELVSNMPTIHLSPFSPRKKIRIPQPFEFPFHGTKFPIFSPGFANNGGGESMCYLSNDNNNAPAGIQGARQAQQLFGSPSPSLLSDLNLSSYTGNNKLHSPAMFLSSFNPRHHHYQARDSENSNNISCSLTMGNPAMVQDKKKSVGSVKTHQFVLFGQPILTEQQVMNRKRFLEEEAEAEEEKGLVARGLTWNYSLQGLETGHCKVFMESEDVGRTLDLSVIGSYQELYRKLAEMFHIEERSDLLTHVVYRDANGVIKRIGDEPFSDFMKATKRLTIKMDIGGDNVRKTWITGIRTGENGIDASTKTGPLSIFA
Chain of UniProt Q94JM3 (whole entry, looked up): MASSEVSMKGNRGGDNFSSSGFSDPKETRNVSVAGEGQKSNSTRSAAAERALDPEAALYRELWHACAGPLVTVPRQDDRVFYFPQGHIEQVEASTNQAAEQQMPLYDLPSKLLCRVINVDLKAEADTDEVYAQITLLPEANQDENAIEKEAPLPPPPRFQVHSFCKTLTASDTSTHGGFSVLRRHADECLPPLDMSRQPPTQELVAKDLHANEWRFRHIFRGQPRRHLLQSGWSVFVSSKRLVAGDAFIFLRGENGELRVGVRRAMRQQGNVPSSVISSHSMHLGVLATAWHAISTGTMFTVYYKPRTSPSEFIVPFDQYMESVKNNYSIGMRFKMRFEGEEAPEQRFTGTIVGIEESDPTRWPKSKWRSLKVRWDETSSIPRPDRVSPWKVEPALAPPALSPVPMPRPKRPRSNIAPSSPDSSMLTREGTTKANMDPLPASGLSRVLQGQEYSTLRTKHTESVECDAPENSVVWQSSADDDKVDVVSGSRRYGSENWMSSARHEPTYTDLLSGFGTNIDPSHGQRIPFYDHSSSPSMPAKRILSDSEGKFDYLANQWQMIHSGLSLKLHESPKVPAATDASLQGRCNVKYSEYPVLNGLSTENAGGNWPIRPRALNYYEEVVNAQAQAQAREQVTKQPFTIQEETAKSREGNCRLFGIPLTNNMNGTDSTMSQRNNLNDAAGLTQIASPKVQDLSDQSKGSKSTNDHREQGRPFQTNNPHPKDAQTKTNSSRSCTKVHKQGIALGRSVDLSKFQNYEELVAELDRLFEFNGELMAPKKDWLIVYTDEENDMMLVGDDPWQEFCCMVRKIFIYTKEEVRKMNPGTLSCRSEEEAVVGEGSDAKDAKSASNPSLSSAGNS

Block 1
Target: CCND1, cyclin fold, Cln2 fusion (human)
Method: yeast growth competition, sequencing
Sample: yeast
Setting: weak parent motif
Reference: not given
Direction: higher = stronger binding
Endpoint: normalised enrichment score
Parent: LLGL2 docking peptide (human); KSLKKSLRQSFRR; partner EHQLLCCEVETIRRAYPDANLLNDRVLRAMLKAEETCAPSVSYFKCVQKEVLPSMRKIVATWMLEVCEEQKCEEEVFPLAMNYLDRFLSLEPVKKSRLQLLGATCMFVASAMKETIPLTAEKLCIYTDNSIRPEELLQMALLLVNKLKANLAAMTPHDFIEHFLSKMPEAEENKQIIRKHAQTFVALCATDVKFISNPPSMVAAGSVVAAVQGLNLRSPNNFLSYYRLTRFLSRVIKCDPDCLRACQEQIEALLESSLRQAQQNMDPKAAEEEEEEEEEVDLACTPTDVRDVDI
KSLKKSLRQSFAR [R12A]: 0.521
KSLKKALRQSFRR [S6A]: 0.196
ASLKKSLRQSFRR [K1A]: 0.375
KSLKKSLRQSFRA [R13A]: 0.324
KSLAKSLRQSFRR [K4A]: 1.08
KSLKKSLAQSFRR [R8A]: 0.65
KSLKKSARQSFRR [L7A]: -0.167

Block 2
Target: Centromere-binding protein 1, full length, N-terminal tag (CBF1, Saccharomyces cerevisiae, UniProt P17106, residues 1-351)
Chain of UniProt P17106 (whole entry, looked up): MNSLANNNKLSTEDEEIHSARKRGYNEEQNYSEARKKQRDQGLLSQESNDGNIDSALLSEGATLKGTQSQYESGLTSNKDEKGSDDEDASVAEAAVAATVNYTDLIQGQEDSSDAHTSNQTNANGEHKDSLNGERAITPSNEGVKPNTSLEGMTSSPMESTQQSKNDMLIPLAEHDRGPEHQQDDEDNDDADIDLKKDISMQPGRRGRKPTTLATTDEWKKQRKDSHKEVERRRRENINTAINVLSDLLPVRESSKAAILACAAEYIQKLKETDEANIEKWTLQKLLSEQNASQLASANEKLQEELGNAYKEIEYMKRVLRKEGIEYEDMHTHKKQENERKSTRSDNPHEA
Method: protein-binding microarray
Form: double-stranded DNA, one strand shown
Sample: in vitro
Tested at: 0.8 µM
Setting: whole 60-bp probe, no competitor
Direction: higher = stronger binding
Endpoint: fluorescence intensity
All sequences stand within: … GTCTTGATTCGCTTGACGCTGCTG
CTATTATAATGAAACCACGTGAGCACGATGAAATTC: 7320 a.u.
GAATTTATGTAATTACGTGTGATACCTCCGATTTAG: 509 a.u.
GAATTTAGCAACCCACACCATATACCTTTGGTGTAG: 506 a.u.
CTACCTTAATGTGGACAGCTGAGATGAAGGTGGTTC: 535 a.u.
GAAGGAACTCTCGCTGATGTTCTGAGCGAGGTGTAG: 504 a.u.
CTAACATACAACCATCACGTAGAGGAAATTCTTTTC: 588 a.u.
CCTAACTACTATATTGTGATGATATAGCTTCGTACA: 552 a.u.
GAATTTTGTGATTGTCACGATCTCAACAAAACATAG: 852 a.u.
CTAATTAGATTCCACCTGACTAATTGCATTACATTC: 1530 a.u.
GAATGACAGATGTCTGGTCTGGTGGTATCGTATTAG: 550 a.u.
GAAGCTAAGAAGATATCCGTGATTTGCATCCGATAG: 552 a.u.
GAAATAGTAGCGTTTCCCGTGTTCTTTTCCCGTTAG: 565 a.u.
GAATGACAAGAACATCTGGTGAAGCAGGCTACCTAG: 486 a.u.
CTATTGGTCTGAAAACACGTGTAGTACTTTCTCTTC: 4120 a.u.
GAATCTAATAAATTTCACGTGATGCGGTAGTTTTAG: 10300 a.u.
GAAGGAGAAAATAAACGCGTGAGCAGTAGCTGATAG: 599 a.u.
CTACATCACTATGCACTGATGACGTCATTGTCATTC: 578 a.u.
GAAGCCCCACGCAAGCATGTGCAGCAACGGACATAG: 632 a.u.

Block 3
Sequence: B1 (IAA14)
Method: two-hybrid
Reference: out of 4 tests
Direction: higher = firmer interaction
Endpoint: positive tests
B1: IAA14 (Arabidopsis thaliana, UniProt Q38832); chain MNLKETELCLGLPGGTETVESPAKSGVGNKRGFSETVDLKLNLQSNKQGHVDLNTNGAPKEKTFLKDPSKPPAKAQVVGWPPVRNYRKNVMANQKSGEAEEAMSSGGGTVAFVKVSMDGAPYLRKVDLKMYTSYKDLSDALAKMFSSFTMGSYGAQGMIDFMNESKVMDLLNSSEYVPSYEDKDGDWMLVGDVPWPMFVESCKRLRIMKGSEAIGLAPRAMEKFKNRS
ARF2 727-859 (Arabidopsis thaliana, UniProt Q94JM3): 0
IAA26 (Arabidopsis thaliana, UniProt Q8LAL2): 2
IAA33 (Arabidopsis thaliana, UniProt Q9FKM7): 2
ARF10 575-693 (Arabidopsis thaliana, UniProt Q9SKN5): 0
IAA15 (Arabidopsis thaliana, UniProt Q9C966): 1
ARF17 (Arabidopsis thaliana, UniProt Q84WU6); weak activation fusion: 0
ARF13 (Arabidopsis thaliana, UniProt Q9FX25): 0

Block 4
Target: Interferon regulatory factor 5, full length, phosphomimetic (IRF5, Homo sapiens, UniProt Q13568-2, residues 1-514, S451D/S453D/S456D/S462D)
Method: protein-binding microarray
Form: double-stranded DNA, one strand shown
Sample: in vitro
Tested at: 940 nM top
Setting: 60-bp whole probe
Together with: salmon DNA 0.4 mg/ml
Reference: random background probes
Direction: higher = stronger binding
Endpoint: fitted relative affinity
All sequences stand within: GCCTAGCAC … GTCTTGATTCGCTTGACGCTGCTG
TCAGATTTCAGTTTTCTACTGTGCTAG: 0.638 z-score
TCACATACGAGTTTCCAACTGTGCTAG: -0.0118 z-score
TTAGGTTTCCACACTGGGTTAGTGCTA: 0.588 z-score
TCAGGTATCGACTTTCGGTTAGTGCTA: 5.92 z-score
TTACGTATCGGACTGGGTTAGTGCTAG: 2.11 z-score
TTAGGTCTACTTATCCTTTAGTGCTAG: 0.139 z-score
TTAGGTATCGGTATCGCTTAGTGCTAG: 9.93 z-score
TCAACAATGATGTTTTGAACTGTGCTA: -0.209 z-score
TCCCATTAAATTTTAATAACGTGCTAG: 0.846 z-score
GACGATCTCAGTTTCGCGACGTGCTAG: 1.55 z-score
GACGATTTCGGGACTCGAGACGTGCTA: 0.291 z-score
GACGGACTGCTTCTCTTGACGTGCTAG: -0.0341 z-score
GACGGTTTCCGACTGCTGACGTGCTAG: 0.542 z-score
GACGGATTCGGGACTGGGGACGTGCTA: -0.111 z-score
GACGATTCCACTTTCGAGACGTGCTAG: 2.32 z-score
TCAATTTTCATTAACTGACTGTGCTAG: 0.675 z-score
TTAGGTATCGACTTTCGGTTTGTGCTA: 6.56 z-score
CTAGGTCTCGGACTGGGTTAGTGCTAG: 0.429 z-score
TAAGATCTCAGTATCGATTAGTGCTAG: 4.92 z-score
TTAGGACTGGGGTTTCGGTTTGTGCTA: 5.11 z-score
TTAGATCTGAGTCTCGATTAGTGCTAG: 2.58 z-score

Block 5
Target: MAFK, bZIP domain (human)
Method: DHFR protein complementation
Sample: yeast
Setting: single substitutions, most at no-binding floor
Reference: wild-type JUN-FOS pair
Direction: higher = stronger binding
Endpoint: binding fitness
Parent: JUN, bZIP domain (human); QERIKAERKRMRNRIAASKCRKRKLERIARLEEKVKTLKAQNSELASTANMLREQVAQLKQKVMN; partner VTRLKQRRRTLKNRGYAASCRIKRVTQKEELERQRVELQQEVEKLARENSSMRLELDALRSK
A46I: -1.49 natural log
R53K: -1.44 natural log
V35F: -1.54 natural log
L52Y: -1.47 natural log
V56N: -1.27 natural log
V56G: -1.44 natural log
A29R: -1.46 natural log
E32I: -1.44 natural log
Q41F: -1.48 natural log
E32F: -1.43 natural log
E54P: -1.48 natural log
E32G: -1.53 natural log
T48V: -1.47 natural log
T48R: -1.45 natural log
R53L: -1.36 natural log
M51C: -1.5 natural log
N42P: -1.51 natural log
M51W: -1.48 natural log
R53A: -1.39 natural log
M51R: -1.42 natural log
L52V: -1.5 natural log

Repeated from above (block 2):
GAATTTAGCAACCCACACCATATACCTTTGGTGTAG: 506 a.u.
CTACCTTAATGTGGACAGCTGAGATGAAGGTGGTTC: 535 a.u.
GAAGGAACTCTCGCTGATGTTCTGAGCGAGGTGTAG: 504 a.u.
CTAACATACAACCATCACGTAGAGGAAATTCTTTTC: 588 a.u.
CCTAACTACTATATTGTGATGATATAGCTTCGTACA: 552 a.u.
